Published values pooled from the literature.
Lines come from different studies, so protocols differ. Several values in a cell are separate wells, animals, samples, runs or records. ± gives the spread as reported.

Cc1ccc([C@@H]2O[C@H](CO)[C@@H](O)[C@H](O)[C@H]2O)cc1Cc1ccc(-c2ccc(F)cc2)s1
urinary magnesium excretion change (Japanese type 2 diabetes patients; 200 mg, day 2, 24 h urine collection; baseline: baseline): -10.7 mg

CC/C=C\C/C=C\C/C=C\C/C=C\C/C=C\C/C=C\CCC(=O)O.Cc1cc(/C=C/C#N)cc(C)c1Nc1ccnc(Nc2ccc(C#N)cc2)n1
equilibrium solubility (aqueous buffer; pH 4.5): 0.29 ± 0.01 µg/mL

CCN1CCN(Cc2ccc(NC(=O)c3ccc(C)c(NC(=O)c4cncc(-c5cccs5)c4)c3)cc2C(F)(F)F)CC1
mean plasma concentration (LC-MS/MS; C57BL/6 mouse, plasma; intraperitoneal, 10 mg/kg single dose, 8 h): 30 ng/mL

N#CN1C[C@H](n2nc(-c3ccc(Oc4ccc(Cl)cn4)cc3)c(C(N)=O)c2N)CCC12CC2
AUC(0-t), geometric mean (human, fasted, plasma; oral, 600 mg, i=12): 19900 ng·h/mL

N#Cc1ccc2c(c1)[C@H]1CCCN(C(=O)c3ccc4[nH]cnc4c3)[C@H]1C2
SHBG level (human males; 80 mg, end of trial): 32.1 nmol/L

O=C(Nc1nc2cccc(-c3ccc(CN4CCS(=O)(=O)CC4)cc3)n2n1)C1CC1
treatment-emergent adverse events (measured: aspartate aminotransferase increased; human rheumatoid arthritis patients; oral, 200 mg once daily, 4 weeks, regardless of relatedness): 0%

Cc1cccc(CNC(=O)c2cn(CCNC(=O)c3ccccc3S)c3cc4c(cc3c2=O)OC(F)(F)O4)n1
MRT(0-inf) (Sprague-Dawley rat, male, plasma; intravenous, 5 mg/kg of parent compound): 37.8 ± 6 min

Cc1cc(NC2CCN(C(=O)OC3CCN(C(=O)/C=C/CN(C)C)C3)CC2)n2ncc(C(C)C)c2n1 (centres unmarked)
patients with TEAE (CTCAE v4.0, measured: Diarrhea; patients with advanced solid tumours; oral, dose not given, TIW, grade 3 or higher): 0%

CCc1cc(C(=O)NC)c2nccc(N3CCc4c(cc(Cn5ccnc5)cc4-c4cn(C)nc4C(F)(F)F)C3=O)c2c1
serum GGT activity (Sprague Dawley rats; oral, 100 mg/kg twice daily, 7 days): 0.8 ± 0.5 U/L

C[C@H]1O[C@@H](O[C@H]2[C@@H](O)C[C@H](O[C@H]3[C@@H](O)C[C@H](O[C@H]4CC[C@@]5(C)[C@H](CC[C@@H]6[C@@H]5C[C@@H](O)[C@]5(C)[C@@H](C7=CC(=O)OC7)CC[C@]65O)C4)O[C@@H]3C)O[C@@H]2C)C[C@H](O)[C@@H]1O
subjects with adverse event (measured: any adverse event; healthy men; oral, dose not given, 8 days, treatment-emergent, crossover trial): 4.5%

C[C@@H](N)c1cc(Cl)ccc1Cn1c(=S)[nH]c(=O)c2[nH]ccc21
subjects with headache (human matched controls; oral, 2.5 mg single dose): 10%

CCOC(=O)N1C[C@@H](C2CCOCC2)N[C@@H](C(C)C)C1
solubility (shake-flask, LC-HRMS; aqueous buffer; 16 h, pH 6.8): > 750 µM

CC[C@H]1CC[C@H](c2ccc(-c3ccc(F)c(F)c3)cc2)CC1
placental accumulation (rat, placenta; 10 ng/mL in perfusate, low dose, mixture of 21 LCMs): 2.17 ± 3.97 ng/g

Cc1c(-c2ccc(N3CCc4cccc(C(=O)Nc5nc6ccccc6s5)c4C3)nc2C(=O)O)cnn1CC12CC3(C)CC(C)(C1)CC(OCCNCC[C@H](O)CO)(C3)C2
mean arterial pressure change (beagle dog, anaesthetised; intravenous infusion, 0.1 mg/kg/min, 5 min; baseline: baseline): 1 mmHg

CCOC(=O)N1C[C@@H](c2ccc(F)c(C#N)c2)N[C@@H](c2ccc(-c3ccccc3)cc2)C1
solubility (shake-flask, LC-HRMS; aqueous buffer; 16 h, pH 6.8): < 4 µM

O=C1NCCc2nc(OCc3cccc(F)c3)ccc21
Irwin test score (measured: skin color; Sprague-Dawley rat male; oral, 100 mg/kg, 4 h; direction not given): 0

Cc1c([C@@H]2COC[C@H](c3ccc(-c4ccccc4)cc3)N2)cnn1-c1ccccc1
solubility (shake-flask, LC-HRMS; aqueous buffer; 16 h, pH 6.8): < 4 µM

CNC(=O)c1cc(Oc2ccc(NC(=O)Nc3ccc(Cl)c(C(F)(F)F)c3)c(F)c2)ccn1
short-term stability accuracy (mouse plasma; 75 ng/mL, 8 h, room temperature): 104%

Cc1ccc(Sc2ccccc2N2CCNCC2)c(C)c1
participants with TEAE (measured: Headache; healthy adult men; oral, 20 mg single dose, 10 day): 0%

Cn1cc([C@H]2COC[C@H](c3cc(Cl)cc(Cl)c3)N2)cn1
solubility (shake-flask, LC-HRMS; aqueous buffer; 16 h, pH 6.8): > 750 µM

CCN1/C(=C/C(C)=O)Sc2ccc(F)cc21
QTc interval (Bazett) (cynomolgus monkey; oral, 10 mg/kg, 1 h post-dose): 327 ± 8 ms

COc1ccc([C@@H](O)c2cc(-c3ncnc4cc(N5CCOCC5)ccc34)c(F)cc2Cl)nn1
lymphocyte count decrease TEAE (locally advanced rectal cancer patients; 50 mg, with: capecitabine and radiotherapy): 0%

O=C(O)c1cccc(C(=O)O)c1
apparent dissolution enthalpy (betaine/glycerol DES-water; DES mass fraction 0.50): 2.94 kcal/mol

Cc1ccc([C@H]2N[C@@H](c3ccc(C(C)(C)C)cc3)CO[C@@H]2C)cc1
solubility (shake-flask, LC-HRMS; aqueous buffer; 16 h, pH 6.8): < 4 µM

COC(=O)N[C@@H](C)CNc1nccc(-c2cn(C(C)C)nc2-c2cc(Cl)cc(NS(C)(=O)=O)c2F)n1
Cmax geometric mean ratio (human, plasma; oral, single dose, with: diltiazem; baseline: compound alone): 145%

O=C(NO)c1ccc(CN(c2cnccn2)c2cnccn2)cc1
patients with adverse event (measured: fatigue; human; oral, dose not given, treatment-related, all dose cohorts): 10%

NC1(C(=O)N[C@@H](CCO)c2ccc(Cl)cc2)CCN(c2nc[nH]c3nccc2-3)CC1
incidence of Amnesia (metastatic CRPC patients; dose not given, grade 3 to 4, treatment-related, all doses, with: enzalutamide 160 mg daily): 0%

CCC[C@H](C)[C@H]1CN(C(=O)OCC)C[C@@H](c2ccc(-c3ccccc3)cc2)N1
solubility (shake-flask, LC-HRMS; aqueous buffer; 16 h, pH 6.8): < 4 µM

CCCCOC(=O)N1CCN(C(=O)[C@H](CP(=O)(O)O)NC(=O)c2cc(N3CC[C@H](OC)C3)nc(-c3ccccc3)n2)CC1
change from baseline (measured: aspartate aminotransferase; human, serum; 8 mg, 24 h post-dose): -1.3 ± 3.9 U/L

C=CC[C@@H]1/C=C(\C)C[C@H](C)C[C@H](OC)[C@H]2O[C@@](O)(C(=O)C(=O)N3CCCC[C@H]3C(=O)O[C@H](/C(C)=C/[C@@H]3CC[C@@H](O)[C@H](OC)C3)[C@H](C)[C@@H](O)CC1=O)[C@H](C)C[C@@H]2OC
plasma Cl− level (Wistar Kyoto rat, male, plasma; ip, 0.5 mg/kg/day, day 18): 99 ± 1 mmol/L

Cc1nc(C)c(-c2ccnc(Nc3ccc(Cl)cc3)n2)s1
solubility (aqueous buffer; pH 7.4): < 1.7 µg/mL

O=c1[nH]c(=O)n([C@@H]2O[C@H](CO)[C@@H](O)[C@@H]2F)cc1CCCCC[18F]
biodistribution (nude mice, RG2 tumour, spleen; intravenous, dose not given, 2 h): 0.11 ± 0.04 %ID/g

CCOc1c([C@H](C)n2nc(C)c3c(N)ncnc32)cc(Cl)c(F)c1[C@@H]1CNC(=O)C1
Cmax (patients, monotherapy; oral, 30 mg once daily, cycle 1 day 1): 3270 ± 775 nM

Cc1ccc(S(=O)(=O)n2cc3c4c2C(=O)C(NCc2ccc(Cl)cc2)=CC4=NCC3)cc1
central compartment volume (Sprague-Dawley rat, plasma; intravenous, 5 mg/kg, two-compartment model): 0.003 L/kg and 0.002 L/kg

CC(=O)Nc1ccc(S(=O)(=O)Nc2c(C)nn(-c3ccccc3)c2C)cc1
solubility (aqueous buffer; pH 7.4): < 2.75 µg/mL

C[C@H](CCC(=O)NCCS(=O)(=O)O)[C@H]1CC[C@H]2[C@@H]3CC[C@@H]4C[C@H](OS(=O)(=O)O)CC[C@]4(C)[C@H]3CC[C@]12C
Cmin (human, plasma; control): 56.1 ± 9.4 nM

CCc1nc(C(N)=O)c(Nc2ccc(N3CCC(N4CCN(C)CC4)CC3)c(OC)c2)nc1NC1CCOCC1
Cmax (Japanese patients, plasma; oral, 20 mg, cycle 1 day 28, multiple doses, mean): 70.5 ng/mL

CCOC(=O)N1C[C@H](CC(C)C)N[C@H](c2ccc(C(C)=O)cc2)C1
solubility (shake-flask, LC-HRMS; aqueous buffer; 16 h, pH 6.8): > 750 µM

COc1cccc(-n2nnnc2SCC(=O)Nc2c(C)cc(C)cc2C)c1
solubility (aqueous buffer; pH 7.4): < 2.74 µg/mL

O=c1c2cc(Cl)c(CO)cc2[nH]c(=S)n1Cc1cccnc1
AUC(0-t) (mouse; oral, 10 mg/kg): 62 ng·h/mL

CCOC(=O)N1C[C@@H](c2cccc(Br)c2)N[C@@H](C(CC)CC)C1
solubility (shake-flask, LC-HRMS; aqueous buffer; 16 h, pH 6.8): < 4 µM

COc1ccc2c(c1)CN(C(=O)CCN1CCC(Cc3ccccc3)CC1)CC[S@@+]2[O-]
QRS duration (telemetry; conscious male beagle dogs; intravenous, 2 mg/kg, 24 h): 34 ± 10 ms

O=c1[nH]c(=O)n([C@H]2C[C@H](O)[C@@H](CO)O2)cc1CCC[18F]
biodistribution (male CD-1 nu/nu mice, RG2 tumour, heart; intravenous, dose not given, 2 h): 0.28 ± 0.09 %ID/g

CC(C)C[C@H](NC(=O)[C@@H](Cc1c[nH]c2ccccc12)NC(=O)[C@H](Cc1ccc(O)cc1)NC(=O)[C@H](CO)NC(=O)[C@H](Cc1c[nH]c2ccccc12)NC(=O)[C@H](Cc1c[nH]cn1)NC(=O)[C@@H]1CCC(=O)N1)C(=O)N[C@@H](CCCNC(=N)N)C(=O)N1CCC[C@H]1C(=O)NCC(N)=O
patients, drug-related skin TEAEs (Chinese CPP children, overall; intramuscular, 22.5 mg, 12 months, day 1, month 6): 1.5%

Cc1cc([C@H]2C[C@H]3[C@@H](CF)SC(N)=N[C@@]3(c3ccc(F)cc3F)CO2)on1
CSF concentration (129/SVE wild-type mouse, male; subcutaneous, 30 mg/kg, 14 h): 14 nM

C=CC(=O)N(C)CCOc1c(N)ncnc1-c1cc(F)cc(NC(=O)c2ccc(C3CC3)cc2F)c1C
AUC (human, whole blood; oral, 25 mg once daily, day 1): 44.9 ng·h/mL

CNC(=O)c1ccc(-c2cnc3ncc(Cc4ccc5ncccc5c4)n3n2)cc1F
patients with adverse event (measured: Fatigue; other cancer patients; oral, 600 mg twice daily, expansion cohort, grade 3-4): 6%

CCCC1CCC(c2ccc(OCC)c(F)c2F)CC1 (centres unmarked)
placental accumulation (rat, placenta; 1000 ng/mL in perfusate, middle dose, mixture of 21 LCMs): 17.2 ± 18.2 ng/g

Cc1noc(C)c1Cn1cc(N2C(=O)CN(Cc3cccc(O)c3)C2=O)cn1
remaining parent (pooled human liver microsomes; 1 µM, 120 min, pH 7.4): 90 % peak area

CC(C)[C@@H](CS(=O)(=O)C(C)C)N1C(=O)[C@@](C)(CC(=O)O)C[C@H](c2cccc(Cl)c2)[C@H]1c1ccc(Cl)cc1
AUC(0-inf) (FVB mouse, wild type, plasma; oral, 20 mg/kg): 3970 ± 665 ng·h/mL

COc1cc(C(=O)N2CCC3(CC2)CC(=O)c2c(cnn2C(C)C)C3)cc(-c2ccc(C(=O)O)cc2)n1
HDL cholesterol change from baseline (human, fasting serum; 40 mg once daily, day 13, adjusted geometric mean): -11.2%

COc1cccc(OC)c1-c1cc(C(=O)NC2(C(=O)O)C3CC4CC(C3)CC2C4)nn1-c1ccc(C(=O)N(C)CCCN(C)CCCN(C)C(=O)CN2CCN(CC(=O)[O-])CCN(CC(=O)[O-])CCN(CC(=O)[O-])CC2)cc1C(C)C.[177Lu+3] (centres unmarked)
tissue uptake (mouse, HT-29 xenograft, muscle; 4 h post injection): 1.6 %ID/g

Cn1cc(Nc2nccc(-c3ccc4c(c3)CN(C3COC3)CC[C@H]4NC(=O)c3cn(C(C)(C)C)nn3)n2)cn1
monocyte count change (human, whole blood; 300 mg twice daily, day 7; baseline: pre-dose baseline): -0.89%

CCO[C@H]1CCN(Cc2c(OC)cc(C)c3[nH]ccc23)[C@H](c2ccc(C(=O)O)cc2)C1
incidence of dry throat (PNH patients, active haemolysis; oral, 25 mg, 4 weeks, treatment): 0%

O=c1[nH]c(=O)n([C@@H]2O[C@H](CO)[C@@H](O)[C@@H]2F)cc1CCC[18F]
biodistribution (nude mice, RG2 tumour, liver; intravenous, dose not given, 2 h): 0.21 ± 0.14 %ID/g

CNCCOC12CC3(C)CC(C)(CC(Cn4ncc(-c5ccc(N6CCc7cccc(C(=O)Nc8nc9ccccc9s8)c7C6)nc5C(=O)O)c4C)(C3)C1)C2
QRS duration change (beagle dog, male, anaesthetised; intravenous bolus, 0.03 mg/kg, 120 min; baseline: baseline): 1 ms

CCNC(=O)[C@@H]1CCCN1C(=O)[C@H](CCCNC(=N)N)NC(=O)[C@H](CC(C)C)NC(=O)[C@@H](CC(C)C)NC(=O)[C@H](Cc1ccc(O)cc1)NC(=O)[C@H](CO)NC(=O)[C@H](Cc1c[nH]c2ccccc12)NC(=O)[C@H](Cc1c[nH]cn1)NC(=O)[C@@H]1CCC(=O)N1
increased libido incidence (healthy female volunteers; dose not given, all treatment groups combined): 21%

CNCc1ccc(-c2[nH]c3cc(F)cc4c3c2CCNC4=O)cc1
vomiting incidence (human patients; oral, 360 mg twice daily, all grades): 37.5%

CCc1cc2c(cc1N1CCC(N3CCOCC3)CC1)C(C)(C)c1[nH]c3cc(C#N)ccc3c1C2=O
average plasma concentration (ALK inhibitor-naive patients; oral, 300 mg twice daily, week 6): 936 nM

Excerpt of the above:
CCOC(=O)N1C[C@@H](c2cccc(Br)c2)N[C@@H](C(CC)CC)C1
solubility (shake-flask, LC-HRMS; aqueous buffer; 16 h, pH 6.8): < 4 µM

CCCC1CCC(c2ccc(OCC)c(F)c2F)CC1 (centres unmarked)
placental accumulation (rat, placenta; 1000 ng/mL in perfusate, middle dose, mixture of 21 LCMs): 17.2 ± 18.2 ng/g

Cc1noc(C)c1Cn1cc(N2C(=O)CN(Cc3cccc(O)c3)C2=O)cn1
remaining parent (pooled human liver microsomes; 1 µM, 120 min, pH 7.4): 90 % peak area

O=C(NO)c1ccc(CN(c2cnccn2)c2cnccn2)cc1
patients with adverse event (measured: fatigue; human; oral, dose not given, treatment-related, all dose cohorts): 10%

CCNC(=O)[C@@H]1CCCN1C(=O)[C@H](CCCNC(=N)N)NC(=O)[C@H](CC(C)C)NC(=O)[C@@H](CC(C)C)NC(=O)[C@H](Cc1ccc(O)cc1)NC(=O)[C@H](CO)NC(=O)[C@H](Cc1c[nH]c2ccccc12)NC(=O)[C@H](Cc1c[nH]cn1)NC(=O)[C@@H]1CCC(=O)N1
increased libido incidence (healthy female volunteers; dose not given, all treatment groups combined): 21%
